Experimental data collected from several papers.
Lines come from different studies, so protocols differ. ± gives the spread as reported.

| SMILES | test | system | setting | scale | quantity | value |
| --- | --- | --- | --- | --- | --- | --- |
| O=C1NC2(CC2)COc2ncc(F)cc2[C@H]2COCCN2c2ccn3ncc1c3n2 |  | Sprague-Dawley rat, female, thymus | oral, 20 mg/kg/day, 4 weeks dosing, end of recovery |  | organ-to-brain weight ratio | 16.8 ± 4.89% |
| Cc1ccccc1-c1ccc(-c2nc(-c3ccc(CN(C)CCCC(=O)O)c([18F])c3)no2)cc1C(F)(F)F |  | rat, kidney | 1 h |  | tracer uptake | 0.79 %ID/g |
| CC[C@H](C)[C@@H]1NC(=O)[C@H](Cc2ccc(O)cc2)NC(=O)[C@@H](N)CSCSC[C@@H](C(=O)N2CCC[C@H]2C(=O)N[C@@H](CC(C)C)C(=O)NCC(N)=O)NC(=O)[C@H](CC(N)=O)NC(=O)[C@H](CCC(N)=O)NC1=O |  | phosphate buffer | 0.1 mg/mL, pH 4.5, 40 °C |  | half-life | 133 days |
| CC[C@H](C)[C@@H]1NC(=O)[C@@H](NC(=O)[C@H](CCCCN)NC(=O)[C@H](CC(C)C)NC(=O)[C@H](CC(C)C)NC(=O)CNC(C)=O)CN(C)C(=O)c2ccc(=O)n(c2)CC[C@@H](C(=O)N[C@@H](CC(C)C)C(N)=O)NC(=O)[C@H]([C@@H](C)O)NC(=O)[C@H](CCCCN)NC1=O | CD, BeStSel | 50% trifluoroethanol | 66 µM |  | helicity | 76.1% |
| CCCCC[C@H]1C(=O)N[C@H](C)C(=O)N(C)[C@@H](CCCCC)C(=O)N[C@H](C)C(=O)N(C)[C@@H](CCCCC)C(=O)N(C)[C@H](C)C(=O)N(C)[C@@H](CCCCC)C(=O)N(C)[C@H](C)C(=O)N1C | PAMPA |  | 500 µM, pH 7.4 |  | log Papp | 4.57 ×10⁻⁶ cm/s |
| CN[C@H](CC(C)C)C(=O)N[C@H]1C(=O)N[C@@H](CC(N)=O)C(=O)N[C@H]2C(=N)N[C@H]3C(=O)N[C@H](C(=O)N[C@H](C(=O)NCCCNC(=N)N)c4cc(O)cc(O)c4-c4cc3ccc4O)[C@H](O)c3ccc(c(Cl)c3)Oc3cc2cc(c3O[C@@H]2O[C@H](CO)[C@@H](O)[C@H](O)[C@H]2O[C@H]2C[C@](C)(NCc3ccc(-c4ccc(Cl)cc4)cc3)[C@H](O)[C@H](C)O2)Oc2ccc(cc2Cl)[C@H]1O |  | mouse | intravenous, 10 mg/kg |  | AUC | 106 µM·h |
| N=C(N)NCCC[C@H](NC(=O)[C@H](CCCNC(=N)N)NC(=O)[C@H](CCCNC(=N)N)NC(=O)[C@H](CCC(N)=O)NC(=O)[C@H](CCCNC(=N)N)NC(=O)[C@H](CCCNC(=N)N)NC(=O)[C@H](CCCCN)NC(=O)[C@H](CCCCN)NC(=O)[C@H](CCCNC(=N)N)NC(=O)CNC(=O)[C@H](Cc1ccc(O)cc1)NC(=O)[C@H](Cc1ccccc1)NC(=O)[C@H](Cc1ccccc1)NC(=O)[C@H](Cc1ccccc1)NC(=O)Cc1ccc2ccccc2c1)C(=O)O |  | C57BL/6 mice | intraperitoneal, 5 mg/kg, 12 h | direction not given | health score | 5 |
| N#[11C]c1ccc(-c2csc(NN=C3CCCC3)n2)cc1 |  | C57BL/6 mouse, male | intravenous, 3 MBq, 60 min |  | uptake in adrenal gland | 3.01 ± 1.22 %ID/g |
| CN1Cc2cc(Cl)ccc2-n2c(nnc2C2CCN(c3cccc([18F])n3)CC2)C1 |  | C57BL/6 mouse male, adrenal gland | intravenous, 3.7 MBq, 5 min |  | tissue uptake | 10.3 ± 5.46 %ID/g |
| CSCC[C@H](N)C(=O)N[C@@H](C)C(=O)N[C@@H](CCCNC(=N)N)C(=O)N[C@@H](CCCNC(=N)N)C(=O)N[C@@H](CC(=O)O)C(=O)N[C@@H](CCCCN)C(=O)N[C@H](C(=O)N[C@@H](CC(=O)O)C(=O)N[C@@H](Cc1ccccc1)C(=O)N[C@@H](C)C(=O)N[C@@H](CCCNC(=N)N)C(=O)N[C@@H](CCCNC(=N)N)C(=O)N[C@@H](CCCNC(=N)N)C(=O)N[C@@H](CCCNC(=N)N)C(=O)NCCCCCC(=O)NCCCCC(NC(=O)CCCCCNC(=O)[C@H](CCCNC(=N)N)NC(=O)[C@H](CCCNC(=N)N)NC(=O)[C@H](CCCNC(=N)N)NC(=O)[C@H](CCCNC(=N)N)NC(=O)[C@H](C)NC(=O)[C@H](Cc1ccccc1)NC(=O)[C@H](CC(=O)O)NC(=O)[C@@H](NC(=O)[C@H](CCCCN)NC(=O)[C@H](CC(=O)O)NC(=O)[C@H](CCCNC(=N)N)NC(=O)[C@H](CCCNC(=N)N)NC(=O)[C@H](C)NC(=O)[C@@H](N)CCSC)[C@@H](C)O)C(=O)NCCCCC(NC(=O)C(CCCCNC(=O)CCCCCNC(=O)[C@H](CCCNC(=N)N)NC(=O)[C@H](CCCNC(=N)N)NC(=O)[C@H](CCCNC(=N)N)NC(=O)[C@H](CCCNC(=N)N)NC(=O)[C@H](C)NC(=O)[C@H](Cc1ccccc1)NC(=O)[C@H](CC(=O)O)NC(=O)[C@@H](NC(=O)[C@H](CCCCN)NC(=O)[C@H](CC(=O)O)NC(=O)[C@H](CCCNC(=N)N)NC(=O)[C@H](CCCNC(=N)N)NC(=O)[C@H](C)NC(=O)[C@@H](N)CCSC)[C@@H](C)O)NC(=O)CCCCCNC(=O)[C@H](CCCNC(=N)N)NC(=O)[C@H](CCCNC(=N)N)NC(=O)[C@H](CCCNC(=N)N)NC(=O)[C@H](CCCNC(=N)N)NC(=O)[C@H](C)NC(=O)[C@H](Cc1ccccc1)NC(=O)[C@H](CC(=O)O)NC(=O)[C@@H](NC(=O)[C@H](CCCCN)NC(=O)[C@H](CC(=O)O)NC(=O)[C@H](CCCNC(=N)N)NC(=O)[C@H](CCCNC(=N)N)NC(=O)[C@H](C)NC(=O)[C@@H](N)CCSC)[C@@H](C)O)C(N)=O)[C@@H](C)O (stereo partly shown) |  | C57BL/6 mouse female, stomach | dose not given, 6 h | reference: total | mean tissue distribution | 47.3% |
| CC[C@H](C)[C@H](NC(=O)[C@H](CCCCN)NC(=O)CNC(=O)[C@H](CC(C)C)NC(=O)[C@H](Cc1ccccc1)NC(=O)[C@H](CCCCN)NC(=O)[C@H](CO)NC(=O)[C@H](Cc1ccccc1)NC(=O)[C@H](Cc1c[nH]c2ccccc12)NC(=O)[C@H](CCC(N)=O)NC(=O)[C@@H](NC(=O)[C@H](Cc1ccccc1)NC(=O)CCCCCNC(=O)CN1CCN(CC(=O)O)CCN(CC(=O)O)CCN(CC(=O)O)CC1)C(C)C)C(=O)N[C@@H](CCC(=O)O)C(=O)N1CCC[C@H]1C(=O)N[C@@H](CC(=O)O)C(=O)N[C@H](C(=O)N[C@@H](CO)C(=O)N[C@@H](CCC(N)=O)C(=O)N[C@H](C(=O)N[C@@H](CCC(N)=O)C(=O)N[C@@H](CC(=O)O)C(=O)N1CCC[C@H]1C(=O)N[C@@H](CC(N)=O)C(=O)N[C@@H](CC(=O)O)C(=O)N[C@@H](CCC(N)=O)C(=O)N[C@@H](Cc1ccc(O)cc1)C(=O)N[C@@H](CCC(=O)O)C(=O)N1CCC[C@H]1C(=O)N[C@@H](Cc1ccccc1)C(=O)O)C(C)C)C(C)C [copper-64 labelled] |  | GZMB-/- mice, CT26 tumour-bearing, brain | 2 h, vehicle-treated |  | tissue uptake | 0.1 ± 0.01 %ID/g |
| CC(C(=O)O)n1nc(Cn2cc3cc(OCC[18F])c(Cl)cc3n2)c2ccccc2c1=O (racemic) | HPLC | nonhuman primate, plasma | 60 min post-injection | reference: plasma radioactivity | parent radiotracer | 85% |
| COc1nc(CC=C(C)CC=CC(C)=CC(C)C(OC2OC(CO)C(O)C(O)C2O)C(C)=CCO)c(C)c(O)c1OC (stereo not shown) | glucuronidation, substrate | human kidney microsomes | 15 min, pH 7.4 |  | Km | 73.7 ± 1.43 µM |

Excerpt of the above:
| SMILES | test | system | setting | scale | quantity | value |
| --- | --- | --- | --- | --- | --- | --- |
| CN1Cc2cc(Cl)ccc2-n2c(nnc2C2CCN(c3cccc([18F])n3)CC2)C1 |  | C57BL/6 mouse male, adrenal gland | intravenous, 3.7 MBq, 5 min |  | tissue uptake | 10.3 ± 5.46 %ID/g |
